Results gathered from unrelated publications.
Each numbered part is a random draw from the data of one study; scales do not carry over between parts.

Block 1
Target: Ras GTPase-activating protein-binding protein 1, RRM domain (G3BP1, Homo sapiens, UniProt Q13283)
Sequence of UniProt Q13283 (whole entry, looked up): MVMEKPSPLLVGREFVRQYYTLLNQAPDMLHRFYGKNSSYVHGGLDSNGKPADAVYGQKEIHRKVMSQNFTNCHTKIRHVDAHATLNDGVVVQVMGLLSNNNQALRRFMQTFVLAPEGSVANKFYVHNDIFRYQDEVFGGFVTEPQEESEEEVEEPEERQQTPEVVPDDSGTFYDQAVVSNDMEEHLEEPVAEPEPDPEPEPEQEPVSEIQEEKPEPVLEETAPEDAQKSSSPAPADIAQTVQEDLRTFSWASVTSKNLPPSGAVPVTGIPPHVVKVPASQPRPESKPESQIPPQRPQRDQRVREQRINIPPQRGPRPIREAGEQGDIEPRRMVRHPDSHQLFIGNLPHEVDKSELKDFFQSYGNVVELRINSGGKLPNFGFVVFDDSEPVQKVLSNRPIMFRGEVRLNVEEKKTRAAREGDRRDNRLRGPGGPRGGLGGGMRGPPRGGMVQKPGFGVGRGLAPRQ
Method: RNA Bind-n-Seq
Molecule type: RNA
Sample: in vitro
Concentration: 1 µM
Setting: whole 134-nt RNA, ends assumed
Together with: 150 mM KCl
Reference: input library
Reading: higher = stronger binding
Endpoint: log2 enrichment
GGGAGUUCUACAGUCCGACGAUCAAGUCCUGUGCUACACAUCGUAUGUACCGAAUCGGAAAAAGGGAAAAAGGAAAAAGGAAAGUAUUAUGUUACGCCGUUCGGAUCUGCACUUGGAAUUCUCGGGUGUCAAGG: -0.000897
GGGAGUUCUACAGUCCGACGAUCCCUGUGCUACACAUCGUAUGUACCGAAUCGGGAAAAAAAGGAAAAAAAGGGGAAAAAAAGGAAAGUAUUAUGUUACGCCGUUCGGAUCUGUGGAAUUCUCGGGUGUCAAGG: 0.0209
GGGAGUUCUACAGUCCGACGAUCCCUGUGCUACACAUCGUAUGUACCGAAUCGGUUUUUUUGGGGUUUUUUUGGUUUUUUUGGAAAGUAUUAUGUUACGCCGUUCGGAUCUGCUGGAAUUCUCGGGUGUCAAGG: -0.191
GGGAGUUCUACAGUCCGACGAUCCCUCAAGUCCUGUGCUACACAUCGUAUGUACCGAAUCGGGGUGGUGGGUGGGAAAGUAUUAUGUUACGCCGUUCGGAUCUGCACUUCCAGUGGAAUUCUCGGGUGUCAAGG: 0.166
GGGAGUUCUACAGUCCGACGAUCGCAGGAAGUAAAAACAAAUGGAAAUGCUUCGGAUAGUGGCAGGGGUGGGGGUAAAUAAGGAAAGGGUGGGAUGGGAGUGGGUAAAGAGUUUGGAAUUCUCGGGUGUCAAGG: 0.847
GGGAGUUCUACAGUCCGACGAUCAGUCCUGUGCUACACAUCGUAUGUACCGAAUCAAAUUUAAAUUUUUUUAAAUUUAAAAAAGUAUUAUGUUACGCCGUUCGGAUCUGCACUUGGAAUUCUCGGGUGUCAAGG: -0.984
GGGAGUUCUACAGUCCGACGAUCCUCAAGUCCUGUGCUACACAUCGUAUGUACCGAAUCGGAAAGGUUUGGUUUGGAAAGUAUUAUGUUACGCCGUUCGGAUCUGCACUUCCAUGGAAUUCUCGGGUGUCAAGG: -0.258
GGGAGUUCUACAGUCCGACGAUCAGUCCUGUGCUACACAUCGUAUGUACCGAAUCGGCCCCCGGGCCCCCGGCCCCCGGGGAAAGUAUUAUGUUACGCCGUUCGGAUCUGCACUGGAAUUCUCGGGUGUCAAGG: -0.545
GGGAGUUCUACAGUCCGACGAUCUUGAUGUUAGUAAAUUUGGUGUAAUACGUGGGGCUUCCAUAUUUCAAAGUGGAAGCUUUCUUCUCUGAAGUCGAUAUAUGGUUUUGAAUUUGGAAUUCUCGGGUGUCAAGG: -0.195
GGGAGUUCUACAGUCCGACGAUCUCAAGUCCUGUGCUACACAUCGUAUGUACCGAAUCGGGGAGGGGAGGGGAGGGGAAAGUAUUAUGUUACGCCGUUCGGAUCUGCACUUCCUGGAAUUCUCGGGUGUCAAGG: 1.05

Block 2
Target: Interferon regulatory factor 5, full length, phosphomimetic (IRF5, Homo sapiens, UniProt Q13568-2, residues 1-514, K96S/S451D/S453D/S456D/S462D)
Method: protein-binding microarray
Molecule type: double-stranded DNA, one strand shown
Sample: in vitro
Concentration: 250 nM
Setting: 60-bp whole probe
Together with: salmon DNA 0.4 mg/ml
Reference: random background probes
Reading: higher = stronger binding
Endpoint: log fluorescence
Shared flanks, not repeated: GCCTAGCAC … GTCTTGATTCGCTTGACGCTGCTG
CTTTTTTTCCGAGTGAGTAAGTGCTAG: 0.483 z-score
GACGATTTCAGTGCCGAGACGTGCTAG: 0.778 z-score
TCATTTATGCACTCTTTAACTGTGCTA: 0.72 z-score
TTAGGTATCCTTTGCCTTTAGTGCTAG: -0.184 z-score
AAGTTTTTCATTTTTTTTCAGTGCTAG: 1.99 z-score
TTAGATCTTAGTCTCGATTAGTGCTAG: 0.983 z-score
CTAGATATCAGACTGGATTAGTGCTAG: 0.143 z-score
TTAGCTATCCTACTGCTTTAGTGCTAG: -0.0192 z-score
TAAGGTATCGACTATCGGTTAGTGCTA: 7.66 z-score
TTAGAACTGAGTATCGAATAGTGCTAG: 1.9 z-score
TCATATATCTGAACCGCACTGTGCTAG: 0.143 z-score
TTGGGTTTCGGTCTCGGTTAGTGCTAG: 9.99 z-score
TTAGGTTTCCTTTCCCCTTAGTGCTAG: 1.72 z-score
GACGATTCCAATTTCGAGACGTGCTAG: 2.38 z-score
TTATGACTGGGGTATCGGTTAGTGCTA: 2.68 z-score
AACGATCTCAGTCTCGAGACGTGCTAG: 0.174 z-score
CTTTCACCTCTCGGCCTGATGTGCTAG: 2.63 z-score

Block 3
Target: Histone acetyltransferase KAT6A, both winged helices, GST fusion (KAT6A, Homo sapiens, UniProt Q92794, residues 1-181)
Method: protein binding microarray
Molecule type: double-stranded DNA, one strand shown
Sample: in vitro
Concentration: not given
Setting: 8-mer, flanks averaged, mean of 2 arrays, mostly near background
Reference: not given
Reading: higher = stronger binding
Endpoint: E-score
Residues (chain): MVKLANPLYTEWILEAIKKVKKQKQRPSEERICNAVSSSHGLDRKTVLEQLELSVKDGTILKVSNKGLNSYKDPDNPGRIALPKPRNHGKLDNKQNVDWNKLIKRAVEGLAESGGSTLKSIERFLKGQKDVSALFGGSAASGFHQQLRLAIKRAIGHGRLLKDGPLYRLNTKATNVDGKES
AAGGGACT: -0.218
AAGCTTCA: -0.115
ATAATGTG: -0.0736
AGACGGGC: 0.273
GTAAATAC: 0.0574
GAAACTGC: 0.0764
CATTAAGG: -0.103
AACGGCCT: 0.167
GGCGCGAC: 0.188
AGTGCATG: -0.0976
CCGAACTC: -0.102
CCCTTCAA: -0.142
GCCCCAAA: 0.0373
GCAGAACC: 0.0561
ACGCCGGC: 0.363
AGACTCAG: -0.0822

Block 4
Target: Sal-like protein 4, full length isoform A (SALL4, Homo sapiens, UniProt Q9UJQ4, residues 1-1053)
Sequence of UniProt Q9UJQ4 (whole entry, looked up): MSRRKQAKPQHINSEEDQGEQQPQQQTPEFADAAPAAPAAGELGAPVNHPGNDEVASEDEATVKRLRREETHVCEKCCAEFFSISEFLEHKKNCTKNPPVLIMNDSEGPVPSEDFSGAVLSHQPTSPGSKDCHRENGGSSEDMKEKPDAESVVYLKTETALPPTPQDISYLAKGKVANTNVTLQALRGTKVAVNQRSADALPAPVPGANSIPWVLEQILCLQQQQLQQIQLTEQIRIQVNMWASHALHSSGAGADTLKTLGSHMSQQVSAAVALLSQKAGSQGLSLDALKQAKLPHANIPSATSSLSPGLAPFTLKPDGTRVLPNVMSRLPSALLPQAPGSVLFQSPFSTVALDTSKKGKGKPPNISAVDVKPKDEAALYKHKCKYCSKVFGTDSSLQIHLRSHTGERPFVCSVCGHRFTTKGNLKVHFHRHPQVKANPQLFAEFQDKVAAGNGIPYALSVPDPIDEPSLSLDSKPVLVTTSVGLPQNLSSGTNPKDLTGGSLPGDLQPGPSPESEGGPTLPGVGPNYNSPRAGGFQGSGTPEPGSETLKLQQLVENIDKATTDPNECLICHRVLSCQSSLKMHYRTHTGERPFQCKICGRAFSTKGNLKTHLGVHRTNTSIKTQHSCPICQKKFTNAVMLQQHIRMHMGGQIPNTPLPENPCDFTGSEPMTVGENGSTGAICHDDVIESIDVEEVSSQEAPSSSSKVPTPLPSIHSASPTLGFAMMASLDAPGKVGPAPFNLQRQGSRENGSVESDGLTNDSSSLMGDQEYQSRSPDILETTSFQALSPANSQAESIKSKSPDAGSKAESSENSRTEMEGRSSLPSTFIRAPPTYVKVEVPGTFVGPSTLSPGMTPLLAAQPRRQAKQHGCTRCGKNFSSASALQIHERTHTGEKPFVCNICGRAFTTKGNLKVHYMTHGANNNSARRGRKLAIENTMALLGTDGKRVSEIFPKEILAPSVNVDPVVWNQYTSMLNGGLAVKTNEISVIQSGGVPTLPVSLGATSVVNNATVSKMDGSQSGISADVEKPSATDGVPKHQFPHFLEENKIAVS
Method: universal PBM
Molecule type: double-stranded DNA, one strand shown
Sample: in vitro
Concentration: 600 nM
Setting: 8-mer, flanks averaged, mean of replicates
Reading: higher = stronger binding
Endpoint: E-score
AGGACGGG: -0.164
GGACGCAC: -0.277
CGTACTAG: -0.0436
GCGTTCGA: -0.167
ATAGATCC: 0.0963
ATCAAGCC: -0.0541
CTAAAAGA: 0.132
CCGTACAG: -0.101
CCGTCCAA: -0.0437
GGAACACA: -0.0445
CAGCAGCA: -0.105
GCGAACGA: -0.0866
GTACGCAA: -0.0155
CCGTCCCC: -0.397
GCCATCGC: -0.219
ATCGGCCC: -0.251
AGACGGAG: -0.115
CCTTTATC: 0.103
CCTAGCGA: -0.192
ATCTCCCC: -0.16
GGCTTTCA: -0.036
CAGGTATC: -0.0342
GCGTGATA: 0.0411
GTCCTGAA: -0.0538
AACCCTGA: 0.0534

Repeated from above (block 3):
GCCCCAAA: 0.0373
GCAGAACC: 0.0561
ACGCCGGC: 0.363
AGACTCAG: -0.0822
